# Results from different studies.
# Numbered parts are unrelated; each lists some results of a single study.
# UniProt Q99558, sequence (whole entry, looked up): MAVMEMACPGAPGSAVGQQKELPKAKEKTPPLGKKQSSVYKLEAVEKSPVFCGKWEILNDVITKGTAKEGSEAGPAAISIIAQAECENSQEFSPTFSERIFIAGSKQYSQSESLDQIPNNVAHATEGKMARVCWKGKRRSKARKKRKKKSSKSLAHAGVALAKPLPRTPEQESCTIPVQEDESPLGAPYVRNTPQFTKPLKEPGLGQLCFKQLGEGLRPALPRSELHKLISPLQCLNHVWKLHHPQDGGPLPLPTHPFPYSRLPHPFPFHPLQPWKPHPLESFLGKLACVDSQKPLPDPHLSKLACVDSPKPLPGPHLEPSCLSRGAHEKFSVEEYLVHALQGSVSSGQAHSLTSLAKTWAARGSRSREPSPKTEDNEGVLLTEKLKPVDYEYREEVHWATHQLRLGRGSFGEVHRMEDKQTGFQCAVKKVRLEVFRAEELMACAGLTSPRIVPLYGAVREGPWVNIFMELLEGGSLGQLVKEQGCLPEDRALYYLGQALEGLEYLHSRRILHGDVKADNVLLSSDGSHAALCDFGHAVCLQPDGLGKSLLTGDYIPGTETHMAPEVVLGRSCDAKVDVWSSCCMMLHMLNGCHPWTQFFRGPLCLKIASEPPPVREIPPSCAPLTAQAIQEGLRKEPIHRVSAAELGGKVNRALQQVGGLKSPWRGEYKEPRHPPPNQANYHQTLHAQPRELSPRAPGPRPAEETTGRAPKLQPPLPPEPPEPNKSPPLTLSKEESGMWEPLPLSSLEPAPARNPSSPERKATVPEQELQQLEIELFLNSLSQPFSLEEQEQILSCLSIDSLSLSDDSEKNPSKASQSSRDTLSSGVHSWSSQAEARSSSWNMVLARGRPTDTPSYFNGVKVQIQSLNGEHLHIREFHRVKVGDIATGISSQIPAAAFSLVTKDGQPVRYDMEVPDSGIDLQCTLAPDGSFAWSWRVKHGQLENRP
# UniProt Q15349, sequence (whole entry, looked up): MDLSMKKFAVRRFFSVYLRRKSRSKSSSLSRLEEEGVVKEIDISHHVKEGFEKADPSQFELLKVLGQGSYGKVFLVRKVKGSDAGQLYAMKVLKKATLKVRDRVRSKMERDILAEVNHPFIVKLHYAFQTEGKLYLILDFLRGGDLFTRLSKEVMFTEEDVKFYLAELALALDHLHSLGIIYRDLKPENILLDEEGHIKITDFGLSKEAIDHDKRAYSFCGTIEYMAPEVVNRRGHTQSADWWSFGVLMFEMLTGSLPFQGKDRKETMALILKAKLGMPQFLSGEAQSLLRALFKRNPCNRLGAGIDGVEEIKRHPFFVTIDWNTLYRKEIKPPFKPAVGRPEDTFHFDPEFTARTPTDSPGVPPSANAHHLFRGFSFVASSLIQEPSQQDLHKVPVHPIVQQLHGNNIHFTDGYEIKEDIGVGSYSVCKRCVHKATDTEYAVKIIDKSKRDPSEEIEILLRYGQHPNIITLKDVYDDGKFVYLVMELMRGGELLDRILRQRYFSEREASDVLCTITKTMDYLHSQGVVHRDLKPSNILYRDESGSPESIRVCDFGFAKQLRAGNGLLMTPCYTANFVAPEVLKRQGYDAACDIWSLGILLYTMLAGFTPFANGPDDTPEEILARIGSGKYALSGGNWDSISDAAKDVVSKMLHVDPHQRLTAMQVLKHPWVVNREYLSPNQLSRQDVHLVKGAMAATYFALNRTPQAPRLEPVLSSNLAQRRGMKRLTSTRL
# UniProt P07550, sequence (whole entry, looked up): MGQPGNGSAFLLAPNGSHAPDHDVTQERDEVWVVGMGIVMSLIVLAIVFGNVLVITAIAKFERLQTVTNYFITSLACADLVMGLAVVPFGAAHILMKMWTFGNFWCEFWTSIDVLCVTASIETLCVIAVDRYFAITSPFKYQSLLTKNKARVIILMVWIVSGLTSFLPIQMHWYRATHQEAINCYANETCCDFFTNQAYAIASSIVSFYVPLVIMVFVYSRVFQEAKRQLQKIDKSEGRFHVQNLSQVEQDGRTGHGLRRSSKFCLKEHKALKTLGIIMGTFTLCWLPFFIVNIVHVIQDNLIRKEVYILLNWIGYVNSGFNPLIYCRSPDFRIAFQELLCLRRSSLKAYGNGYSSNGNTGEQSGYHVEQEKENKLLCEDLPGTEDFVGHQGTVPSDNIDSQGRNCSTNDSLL
# UniProt P10398, sequence (whole entry, looked up): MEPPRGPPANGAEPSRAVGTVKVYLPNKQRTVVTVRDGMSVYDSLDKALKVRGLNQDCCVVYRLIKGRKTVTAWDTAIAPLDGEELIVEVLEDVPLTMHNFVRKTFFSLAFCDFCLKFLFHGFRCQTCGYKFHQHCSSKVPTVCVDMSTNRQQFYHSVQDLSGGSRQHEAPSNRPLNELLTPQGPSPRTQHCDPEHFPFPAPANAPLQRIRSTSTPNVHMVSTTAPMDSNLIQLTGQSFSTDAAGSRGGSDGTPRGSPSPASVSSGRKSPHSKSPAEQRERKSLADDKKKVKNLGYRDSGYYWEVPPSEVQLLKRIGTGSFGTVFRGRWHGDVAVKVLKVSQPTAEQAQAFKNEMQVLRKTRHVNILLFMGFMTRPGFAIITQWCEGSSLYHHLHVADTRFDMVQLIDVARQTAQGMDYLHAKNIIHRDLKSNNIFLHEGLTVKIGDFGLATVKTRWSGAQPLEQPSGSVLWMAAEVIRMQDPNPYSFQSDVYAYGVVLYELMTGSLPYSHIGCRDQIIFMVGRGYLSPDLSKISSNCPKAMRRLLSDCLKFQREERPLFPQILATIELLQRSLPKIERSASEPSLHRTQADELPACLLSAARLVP
# UniProt P28566, sequence (whole entry, looked up): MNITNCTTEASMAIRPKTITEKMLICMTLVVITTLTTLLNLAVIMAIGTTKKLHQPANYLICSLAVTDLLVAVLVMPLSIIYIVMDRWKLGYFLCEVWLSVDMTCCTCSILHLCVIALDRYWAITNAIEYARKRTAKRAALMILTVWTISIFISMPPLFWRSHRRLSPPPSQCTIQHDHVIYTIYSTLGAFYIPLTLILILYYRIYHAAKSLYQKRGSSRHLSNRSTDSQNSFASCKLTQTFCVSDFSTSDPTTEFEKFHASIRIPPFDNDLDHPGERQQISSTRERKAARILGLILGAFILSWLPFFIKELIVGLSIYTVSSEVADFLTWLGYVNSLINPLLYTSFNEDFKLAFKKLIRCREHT
# UniProt O95136, sequence (whole entry, looked up): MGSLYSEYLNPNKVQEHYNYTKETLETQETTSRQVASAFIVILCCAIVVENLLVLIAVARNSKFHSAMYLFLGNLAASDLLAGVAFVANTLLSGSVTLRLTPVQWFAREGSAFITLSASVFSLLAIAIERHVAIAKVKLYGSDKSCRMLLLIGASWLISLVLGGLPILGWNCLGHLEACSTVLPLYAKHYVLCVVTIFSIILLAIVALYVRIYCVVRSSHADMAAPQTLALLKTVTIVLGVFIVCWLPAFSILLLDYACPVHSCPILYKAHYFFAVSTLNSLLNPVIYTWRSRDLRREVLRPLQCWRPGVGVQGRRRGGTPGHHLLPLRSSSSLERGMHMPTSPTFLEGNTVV
# UniProt P49238, sequence (whole entry, looked up): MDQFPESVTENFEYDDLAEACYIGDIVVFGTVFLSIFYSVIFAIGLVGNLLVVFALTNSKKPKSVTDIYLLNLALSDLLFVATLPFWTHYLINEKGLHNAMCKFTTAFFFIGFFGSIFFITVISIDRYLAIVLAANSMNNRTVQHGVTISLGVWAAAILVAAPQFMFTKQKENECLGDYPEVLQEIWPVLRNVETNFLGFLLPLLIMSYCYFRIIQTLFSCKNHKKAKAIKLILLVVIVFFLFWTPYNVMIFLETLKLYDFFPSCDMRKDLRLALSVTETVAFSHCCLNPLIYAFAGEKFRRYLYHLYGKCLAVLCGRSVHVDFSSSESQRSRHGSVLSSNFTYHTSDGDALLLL
# UniProt Q8IYT8, sequence (whole entry, looked up): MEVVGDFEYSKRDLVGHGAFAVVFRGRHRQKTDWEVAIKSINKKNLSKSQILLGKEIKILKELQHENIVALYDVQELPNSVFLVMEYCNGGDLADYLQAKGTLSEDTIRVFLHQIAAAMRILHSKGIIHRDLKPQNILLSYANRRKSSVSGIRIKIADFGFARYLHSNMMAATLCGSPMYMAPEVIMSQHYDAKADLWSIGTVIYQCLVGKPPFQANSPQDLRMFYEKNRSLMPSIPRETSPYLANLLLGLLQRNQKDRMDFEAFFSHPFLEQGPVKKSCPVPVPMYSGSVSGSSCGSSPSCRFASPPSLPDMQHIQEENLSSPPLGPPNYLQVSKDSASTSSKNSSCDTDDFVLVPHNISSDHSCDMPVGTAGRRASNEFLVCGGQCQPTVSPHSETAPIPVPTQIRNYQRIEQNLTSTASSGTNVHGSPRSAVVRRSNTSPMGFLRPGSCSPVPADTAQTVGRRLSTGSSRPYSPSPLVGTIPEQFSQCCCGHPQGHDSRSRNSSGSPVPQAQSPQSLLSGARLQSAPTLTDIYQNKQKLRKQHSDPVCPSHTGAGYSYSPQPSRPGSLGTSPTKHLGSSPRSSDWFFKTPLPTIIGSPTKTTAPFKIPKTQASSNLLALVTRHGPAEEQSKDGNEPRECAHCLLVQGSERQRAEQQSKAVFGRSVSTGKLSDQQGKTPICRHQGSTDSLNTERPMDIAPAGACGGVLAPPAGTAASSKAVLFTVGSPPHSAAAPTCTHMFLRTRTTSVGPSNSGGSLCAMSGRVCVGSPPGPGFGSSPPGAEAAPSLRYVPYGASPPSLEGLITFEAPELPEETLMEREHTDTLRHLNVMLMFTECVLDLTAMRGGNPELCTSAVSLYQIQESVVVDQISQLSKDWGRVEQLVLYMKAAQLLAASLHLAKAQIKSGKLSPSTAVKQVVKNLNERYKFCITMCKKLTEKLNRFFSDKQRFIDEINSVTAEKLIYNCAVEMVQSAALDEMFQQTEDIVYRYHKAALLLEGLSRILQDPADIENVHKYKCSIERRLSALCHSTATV

# Series 1
# SMILES: CC(=O)O/N=C1/C(c2c(O)[nH]c3cc(Br)ccc23)=Nc2ccccc21
# Read-out: enzyme activity
# Mode: inhibitor
# Tested at: 0.5 µM
# Relative to: control
target,remaining activity [%]
"Serine/threonine-protein kinase TBK1 (TBK1, Homo sapiens, UniProt Q9UHD2)",78.5
"Mitogen-activated protein kinase 3 (MAPK3, Homo sapiens, UniProt P27361)",93.7
"Wee1-like protein kinase (WEE1, Homo sapiens, UniProt P30291)",93.7
"Tyrosine-protein kinase FRK (FRK, Homo sapiens, UniProt P42685)",51.2
"Serine/threonine-protein kinase ULK2 (ULK2, Homo sapiens, UniProt Q8IYT8)",92.2
"MAP kinase-activated protein kinase 2 (MAPKAPK2, Homo sapiens, UniProt P49137)",109
"Tyrosine-protein kinase JAK3 (JAK3, Homo sapiens, UniProt P52333)",107
"Casein kinase I isoform gamma-3 (CSNK1G3, Homo sapiens, UniProt Q9Y6M4)",101
"Tyrosine-protein kinase ABL2 (ABL2, Homo sapiens, UniProt P42684)",26.4
"Dual specificity mitogen-activated protein kinase kinase 2 (MAP2K2, Homo sapiens, UniProt P36507)",83.1
"Serine/threonine-protein kinase TAO2 (TAOK2, Homo sapiens, UniProt Q9UL54)",84.4
"Mitogen-activated protein kinase kinase kinase 14 (MAP3K14, Homo sapiens, UniProt Q99558)",75.7
"Serine/threonine-protein kinase A-Raf (ARAF, Homo sapiens, UniProt P10398)",97.2
"Ribosomal protein S6 kinase alpha-2 (RPS6KA2, Homo sapiens, UniProt Q15349)",51

# Series 2
# Structure (SMILES): CN(C)c1ncnc(-c2ccc3nc(Nc4cc(CN5CCN(C(=O)CC(F)(F)F)CC5)ccn4)[nH]c3c2)c1Cl
# Read-out: cell-free assay
# Method: competition with immobilised ligand
# Tested at: 1 µM
target,remaining binding
"Dual specificity protein kinase CLK1 (CLK1, Homo sapiens, UniProt P49759)",71%
"Serine/threonine-protein kinase Nek11 (NEK11, Homo sapiens, UniProt Q8NG66)",55%
"Ribosomal protein S6 kinase alpha-2, C-terminal kinase domain (RPS6KA2, Homo sapiens, UniProt Q15349)",100%
"Phosphatidylinositol 4,5-bisphosphate 3-kinase catalytic subunit alpha isoform (PIK3CA, Homo sapiens, UniProt P42336, H1047Y)",74%
"Hepatocyte growth factor receptor (MET, Homo sapiens, UniProt P08581)",69%
"Mitogen-activated protein kinase kinase kinase 14 (MAP3K14, Homo sapiens, UniProt Q99558)",62%
"Homeodomain-interacting protein kinase 2 (HIPK2, Homo sapiens, UniProt Q9H2X6)",86%
"Fibroblast growth factor receptor 4 (FGFR4, Homo sapiens, UniProt P22455)",92%
"Serine/threonine-protein kinase 3 (STK3, Homo sapiens, UniProt Q13188)",100%
"Mast/stem cell growth factor receptor Kit (KIT, Homo sapiens, UniProt P10721, A829P)",53%
"Serine/threonine-protein kinase 4 (STK4, Homo sapiens, UniProt Q13043)",95%
"BDNF/NT-3 growth factors receptor (NTRK2, Homo sapiens, UniProt Q16620)",63%
"Serine/threonine-protein kinase LATS2 (LATS2, Homo sapiens, UniProt Q9NRM7)",53%

# Series 3
# Structure (SMILES): NC(N)=NC(=O)c1nc(Cl)c(N2CCCCCC2)nc1N
# Read-out: β-arrestin recruitment
# Mode: agonist
# Method: PRESTO-Tango
# Tested at: 10 µM
# Relative to: untreated
target,fold over basal
"CX3C chemokine receptor 1 (CX3CR1, Homo sapiens, UniProt P49238)",0.57
"Sphingosine 1-phosphate receptor 2 (S1PR2, Homo sapiens, UniProt O95136)",0.96
"Alpha-1D adrenergic receptor (ADRA1D, Homo sapiens, UniProt P25100)",0.92
"Beta-2 adrenergic receptor (ADRB2, Homo sapiens, UniProt P07550)",1.01
"Galanin receptor type 1 (GALR1, Homo sapiens, UniProt P47211)",0.82 fold
"D(3) dopamine receptor (DRD3, Homo sapiens, UniProt P35462)",3.27
"5-hydroxytryptamine receptor 1D (HTR1D, Homo sapiens, UniProt P28221)",0.91
"G-protein coupled receptor family C group 6 member A (GPRC6A, Homo sapiens, UniProt Q5T6X5)",1 fold
"G-protein coupled estrogen receptor 1 (GPER1, Homo sapiens, UniProt Q99527)",0.79
"5-hydroxytryptamine receptor 1E (HTR1E, Homo sapiens, UniProt P28566)",1.28

# Series 4
# Cell line: HaCaT
# Tested at: 100 µM
# Time: 18 h
SMILES,viability [%]
CCCCCCCCCC[C@H](C(=O)O)[C@]1(C(=O)O)CCC(=O)O1,100
CC(=O)OC/C=C(C)/C=C/C=C(C)/C=C/C1=C(C)CCCC1(C)C,86.4
CC(C)OC(=O)CCC/C=C\C[C@@H]1[C@@H](CC[C@@H](O)CCc2ccccc2)[C@H](O)C[C@@H]1O,15.7
COc1cc(OC)c(C(=O)CCCN2CCCC2)c(OC)c1,107
O=c1c(-c2ccc(O[C@@H]3O[C@H](CO)[C@@H](O)[C@H](O)[C@H]3O)cc2)coc2cc(O)cc(O)c12,111
Clc1ccc2nsnc2c1NC1=NCCN1,110
NC(=O)CCCCC1CCSS1 (stereo not shown),100
CC(C)(CO)C(O)C(=O)NCCCO (stereo not shown),96.9
N=C(N)NC(=O)Cc1c(Cl)cccc1Cl,118

# Some of these lines once more (series 2):
target,remaining binding
"BDNF/NT-3 growth factors receptor (NTRK2, Homo sapiens, UniProt Q16620)",63%
"Fibroblast growth factor receptor 4 (FGFR4, Homo sapiens, UniProt P22455)",92%
"Hepatocyte growth factor receptor (MET, Homo sapiens, UniProt P08581)",69%
"Serine/threonine-protein kinase LATS2 (LATS2, Homo sapiens, UniProt Q9NRM7)",53%
